Assay results from different studies.
Numbered parts are unrelated; each lists some results of a single study. Positions count from the first letter of the parent shown.
Chain of UniProt O15294 (whole entry, looked up): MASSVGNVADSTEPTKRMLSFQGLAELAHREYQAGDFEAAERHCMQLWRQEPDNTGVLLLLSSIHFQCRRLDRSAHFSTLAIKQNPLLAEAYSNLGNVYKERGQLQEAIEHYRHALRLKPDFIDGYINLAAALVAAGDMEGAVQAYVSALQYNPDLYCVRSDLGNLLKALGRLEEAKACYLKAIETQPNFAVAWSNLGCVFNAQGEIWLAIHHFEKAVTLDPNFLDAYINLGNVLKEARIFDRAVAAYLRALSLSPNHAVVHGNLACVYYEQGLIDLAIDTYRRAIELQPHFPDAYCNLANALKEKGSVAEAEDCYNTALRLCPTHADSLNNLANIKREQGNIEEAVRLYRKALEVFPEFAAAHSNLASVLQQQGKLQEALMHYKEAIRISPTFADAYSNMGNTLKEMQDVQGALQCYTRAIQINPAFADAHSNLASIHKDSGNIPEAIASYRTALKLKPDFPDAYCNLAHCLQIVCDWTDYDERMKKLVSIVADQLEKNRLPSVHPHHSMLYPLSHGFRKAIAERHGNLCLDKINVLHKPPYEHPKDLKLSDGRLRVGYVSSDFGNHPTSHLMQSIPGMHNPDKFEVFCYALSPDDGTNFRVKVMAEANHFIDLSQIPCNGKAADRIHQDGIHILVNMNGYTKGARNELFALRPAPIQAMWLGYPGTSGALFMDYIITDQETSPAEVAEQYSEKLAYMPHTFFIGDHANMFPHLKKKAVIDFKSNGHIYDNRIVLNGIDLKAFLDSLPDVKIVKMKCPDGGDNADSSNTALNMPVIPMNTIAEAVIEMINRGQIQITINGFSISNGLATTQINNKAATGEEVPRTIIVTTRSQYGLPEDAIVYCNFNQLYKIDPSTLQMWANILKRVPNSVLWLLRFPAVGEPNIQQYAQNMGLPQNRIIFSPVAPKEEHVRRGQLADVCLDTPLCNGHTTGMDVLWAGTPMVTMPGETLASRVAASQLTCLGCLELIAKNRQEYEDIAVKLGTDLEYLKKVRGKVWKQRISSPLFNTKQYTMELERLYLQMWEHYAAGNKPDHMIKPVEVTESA

Sample 1
Target: FOSL2, bZIP domain (human)
Method: DHFR protein complementation
Sample: yeast
Setting: single substitutions, most at no-binding floor
Baseline: wild-type JUN-FOS pair
Reading: higher = stronger binding
Starting sequence: JUN, bZIP domain (human); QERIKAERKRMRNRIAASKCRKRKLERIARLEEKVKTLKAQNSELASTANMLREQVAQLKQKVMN; partner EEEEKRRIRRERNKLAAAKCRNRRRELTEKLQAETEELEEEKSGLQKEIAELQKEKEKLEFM
Substitution	binding fitness
A49G	-0.579 natural log
K36Y	-0.0707 natural log
E44Q	-0.00503 natural log
A29M	-0.326 natural log
V56F	-1.24 natural log
E33G	-0.106 natural log
N42S	-0.473 natural log
A29C	-0.0875 natural log

Sample 2
Substitution: T119Y
Target: ABI1, truncated, D143A, DHFR fusion (Arabidopsis thaliana)
Method: DHFR PCA, deep sequencing
Sample: yeast
Setting: methotrexate growth selection, single substitutions
Baseline: wild-type fitted maximum
Reading: higher = stronger binding
Starting sequence: PYL1, truncated, DHFR fusion (Arabidopsis thaliana); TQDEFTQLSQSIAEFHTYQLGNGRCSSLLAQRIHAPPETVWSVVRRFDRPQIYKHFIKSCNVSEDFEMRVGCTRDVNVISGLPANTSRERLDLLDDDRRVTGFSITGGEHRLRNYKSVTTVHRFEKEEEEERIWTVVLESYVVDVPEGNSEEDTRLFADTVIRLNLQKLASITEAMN; partner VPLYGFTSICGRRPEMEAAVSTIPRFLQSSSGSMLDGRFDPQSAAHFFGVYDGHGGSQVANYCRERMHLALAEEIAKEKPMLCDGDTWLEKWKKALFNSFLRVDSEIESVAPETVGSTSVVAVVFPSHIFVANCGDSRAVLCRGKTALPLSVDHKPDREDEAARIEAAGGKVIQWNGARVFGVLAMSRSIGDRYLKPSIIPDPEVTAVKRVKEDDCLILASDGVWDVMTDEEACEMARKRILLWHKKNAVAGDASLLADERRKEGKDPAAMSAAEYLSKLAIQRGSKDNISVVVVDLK
with	relative binding score [%]
(+)-ABA 0.032 µM	0.347
(+)-ABA 0.0091 µM	-9.05
(+)-ABA 2500 µM	22.3
(+)-ABA 4.8 µM	-16.9
(+)-ABA 0 µM	-7.3
(+)-ABA 200 µM	-3.12

Sample 3
Target: TAR DNA-binding protein 43, full length, His tag (TARDBP, Homo sapiens, UniProt Q13148, residues 1-414)
Method: RNA Bind-n-Seq
Form: RNA
Sample: in vitro
Tested at: 20 nM
Setting: 6-mer, flanks averaged, single round
With: 150 mM LiCl
Baseline: input library
Reading: higher = stronger binding
Sequence	6-mer enrichment (R)
UAGUCA	0.846
CCGUAC	0.841
CGCCUC	0.928
UUUACG	0.983
CUGGGA	0.972
CCAUCC	0.923
GGAACA	0.888
GUCAAA	0.903

Other studies, line by line
Sequence	target	assay	system	setting	scale	measurement	value
APDIFFHPKYYIKI	UDP-N-acetylglucosamine--peptide N-acetylglucosaminyltransferase 110 kDa subunit (OGT, Homo sapiens, UniProt O15294)	binding, phage display NGS	peptide	concentration not given	baseline: input library	enrichment fold change	13.9
